Measurements pooled from the literature.
Lines come from different studies, so protocols differ. ± marks the error that the study gave.

Protein sequences, listed by entry. Tags and fused reporters are not part of them.
UniProt P28222, whole entry: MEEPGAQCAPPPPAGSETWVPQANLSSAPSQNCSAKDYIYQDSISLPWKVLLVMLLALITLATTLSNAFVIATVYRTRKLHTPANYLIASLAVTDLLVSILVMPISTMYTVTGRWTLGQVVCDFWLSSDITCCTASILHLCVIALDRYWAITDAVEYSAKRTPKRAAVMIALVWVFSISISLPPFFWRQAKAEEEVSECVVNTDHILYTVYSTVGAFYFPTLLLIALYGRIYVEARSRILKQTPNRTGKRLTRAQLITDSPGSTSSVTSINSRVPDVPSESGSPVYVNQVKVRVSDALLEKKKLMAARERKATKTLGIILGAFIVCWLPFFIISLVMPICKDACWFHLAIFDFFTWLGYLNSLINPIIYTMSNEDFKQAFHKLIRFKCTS

`Cc1ccc(S(=O)(=O)Nc2cccc(C(=O)NC3CCN(c4ncnc5[nH]cnc45)CC3)c2)cc1Cl` has a viability of 105% (A549-ACE2; 0.09145 µM).
The inhibition of `COc1ccc(CN[C@@H]2CO[C@H](C(c3ccccc3)c3ccccc3)C[C@H]2O)cc1` is reported as 9.1% (5-hydroxytryptamine receptor 1B (HTR1B, Homo sapiens, UniProt P28222); radioligand binding; 10 µM, added: [3H]GR-125743).
Under “potentiation of amikacin”, `NC[C@@H](NC[C@@H]1CCCN1C[C@@H](CO)NC[C@@H](NCCC1CC2CCC1C2)c1ccccc1)c1ccccc1` (stereo partly drawn) is recorded as 1.6 fold (Escherichia coli; bacterial growth; 8 µM, fold shift of IC90, added: amikacin).
The IC50 of `CC(C)C(C(=O)N(Cc1ccc(C2CCCCC2)cc1)c1ccc(C(=O)O)cc1)N(C)S(=O)(=O)c1c(F)c(F)c(F)c(F)c1F` (stereo not drawn) is reported as 4.7 ± 0.1 µM (Pa03C-CAF19 co-culture (2:1); cell growth, MTS; 72 h).
`CCCCCCCCCCCCNC(=O)N[C@H](C(=O)N[C@H]1/C=C/CCNC(=O)/C=C/[C@H](C)NC1=O)C(C)C` gave an EC50 of 0.0481 ± 0.0087 µM (MM.1S; cell viability, CellTiter-Glo; 24 h).
For `O=C(O)c1ccc(-c2cccc(C(=O)O)c2)cc1`, “MIC of ampicillin” read 256 µg/mL (Escherichia coli; bacterial growth, broth microdilution; expressing OXA-48; 64 µg/mL, added: ampicillin; MIC of ampicillin).
The radioactivity uptake of `[11CH3]Nc1ccc(C(=O)C2CCN(C3Cc4ccccc4CC3O)CC2)cc1` (single isomer, unassigned) is reported as 0.49 %ID/g (Sprague-Dawley rat, heart; intravenous, dose not given, 5 min).
For `C[C@H](CS)C(=O)N[C@@H](Cc1c[nH]c2ccccc12)C(=O)O`, “MIC of meropenem” read 32 µg/mL (Klebsiella pneumoniae; IMP-1 producing; 10 µM, added: meropenem).
Under “days to zero efficacy”, `CN1CC[C@]23c4c5ccc(O)c4O[C@H]2c2ncc(-c4ccc(Cl)cc4)cc2C[C@@]3(OCCCc2ccccc2)[C@H]1C5` is recorded as 4.9 days (tolerance; CD-1 mouse, HIV neuropathy; sc, 10 mg/kg twice daily, 3 days).
The logP of `NCCNCCSc1ccccc1` is reported as -0.6 ± 0.08 (n-octanol/phosphate buffer; 10 µg/mL, pH 7.4).
For `Cc1ccc(-c2csc(NP(=O)(O)OCC3OC(n4c[n+](Cc5ccccc5)c5c(=O)[nH]c(NC(=O)c6ccccc6)nc54)C4OC(C)(C)OC34)n2)cc1` (stereo not drawn), the IC50 was 69.5 ± 4.99 µM (HepG2; cell growth, SRB).
`CC(CCN[C@H](CN[C@H](CO)CN1CCC[C@H]1CN[C@H](CN)c1ccccc1)c1ccccc1)c1ccccc1` (stereo partly drawn): “potentiation of amikacin” 3.5 fold (Escherichia coli; bacterial growth; 16 µM, fold shift of IC50, added: amikacin).
With `Cc1ccccc1S(=O)(=O)Nc1cccc(C(=O)NC2CCN(c3ncnc4[nH]cnc34)CC2)c1` the viability was 100% (A549-ACE2; 0.01016 µM).
Under “potentiation of amikacin”, `NC[C@@H](NC[C@@H]1CCCN1C[C@@H](CO)NC[C@@H](NCCc1ccc(-c2ccccc2)cc1)c1ccccc1)c1ccccc1` is recorded as 1.1 fold (Escherichia coli; bacterial growth; 8 µM, fold shift of IC90, added: amikacin).
For `C=CC(=O)Nc1cc(-n2c(=O)ccc3cnc4ccc(-c5cn[nH]c5)cc4c32)ccc1C`, the GI50 was greater than 10 µM (HeLa; cell growth; 72 h).

Excerpt of the above:
`Cc1ccc(S(=O)(=O)Nc2cccc(C(=O)NC3CCN(c4ncnc5[nH]cnc45)CC3)c2)cc1Cl` has a viability of 105% (A549-ACE2; 0.09145 µM).
